Measured values of several laboratories.
Protocols differ between the studies behind these lines. ± marks the error that the study gave.
Orco: Orco (Drosophila melanogaster, UniProt Q9VNB5)
lasR: Transcriptional activator protein LasR (lasR, Pseudomonas aeruginosa, UniProt P25084)
HDAC6: Protein deacetylase HDAC6 (HDAC6, Homo sapiens, UniProt Q9UBN7)
blaOXA-33: Beta-lactamase (blaOXA-33, Acinetobacter baumannii, UniProt Q8RLA6)
cyp121: Mycocyclosin synthase (cyp121, Mycobacterium tuberculosis, UniProt P9WPP7)
Oprm1: Mu-type opioid receptor (Oprm1, Mus musculus, UniProt P42866)
MAPK8: Mitogen-activated protein kinase 8 (MAPK8, Homo sapiens, UniProt P45983)

Chains of the proteins cited; added tags and fusions are not shown. Residues count along the entry.
UniProt Q9VNB5, whole entry: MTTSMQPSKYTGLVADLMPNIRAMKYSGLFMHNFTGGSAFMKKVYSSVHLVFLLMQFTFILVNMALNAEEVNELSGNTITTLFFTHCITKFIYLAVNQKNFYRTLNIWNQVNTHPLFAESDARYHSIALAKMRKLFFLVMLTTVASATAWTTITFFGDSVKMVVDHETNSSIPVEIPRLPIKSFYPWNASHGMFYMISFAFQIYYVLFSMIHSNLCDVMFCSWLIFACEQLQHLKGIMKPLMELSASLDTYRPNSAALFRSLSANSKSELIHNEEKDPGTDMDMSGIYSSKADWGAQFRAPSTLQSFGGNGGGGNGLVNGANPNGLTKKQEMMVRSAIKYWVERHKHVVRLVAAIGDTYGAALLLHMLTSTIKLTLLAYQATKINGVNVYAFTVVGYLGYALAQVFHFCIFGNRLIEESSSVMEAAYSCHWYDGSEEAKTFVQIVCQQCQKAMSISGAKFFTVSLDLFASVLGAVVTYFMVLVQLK
UniProt P25084, 1-173 limits assumed: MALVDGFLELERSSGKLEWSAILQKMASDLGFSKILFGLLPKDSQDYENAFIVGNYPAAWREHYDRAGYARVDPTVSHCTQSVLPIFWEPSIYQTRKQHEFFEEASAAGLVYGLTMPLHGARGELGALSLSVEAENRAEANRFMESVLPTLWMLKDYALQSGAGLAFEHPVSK
UniProt P25084, whole entry: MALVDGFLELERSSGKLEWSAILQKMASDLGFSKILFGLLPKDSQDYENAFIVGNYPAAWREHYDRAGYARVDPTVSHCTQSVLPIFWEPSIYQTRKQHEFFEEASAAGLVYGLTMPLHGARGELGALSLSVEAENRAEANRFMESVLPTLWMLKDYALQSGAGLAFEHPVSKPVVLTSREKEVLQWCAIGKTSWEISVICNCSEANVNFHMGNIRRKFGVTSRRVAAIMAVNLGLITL
UniProt Q9UBN7, whole entry: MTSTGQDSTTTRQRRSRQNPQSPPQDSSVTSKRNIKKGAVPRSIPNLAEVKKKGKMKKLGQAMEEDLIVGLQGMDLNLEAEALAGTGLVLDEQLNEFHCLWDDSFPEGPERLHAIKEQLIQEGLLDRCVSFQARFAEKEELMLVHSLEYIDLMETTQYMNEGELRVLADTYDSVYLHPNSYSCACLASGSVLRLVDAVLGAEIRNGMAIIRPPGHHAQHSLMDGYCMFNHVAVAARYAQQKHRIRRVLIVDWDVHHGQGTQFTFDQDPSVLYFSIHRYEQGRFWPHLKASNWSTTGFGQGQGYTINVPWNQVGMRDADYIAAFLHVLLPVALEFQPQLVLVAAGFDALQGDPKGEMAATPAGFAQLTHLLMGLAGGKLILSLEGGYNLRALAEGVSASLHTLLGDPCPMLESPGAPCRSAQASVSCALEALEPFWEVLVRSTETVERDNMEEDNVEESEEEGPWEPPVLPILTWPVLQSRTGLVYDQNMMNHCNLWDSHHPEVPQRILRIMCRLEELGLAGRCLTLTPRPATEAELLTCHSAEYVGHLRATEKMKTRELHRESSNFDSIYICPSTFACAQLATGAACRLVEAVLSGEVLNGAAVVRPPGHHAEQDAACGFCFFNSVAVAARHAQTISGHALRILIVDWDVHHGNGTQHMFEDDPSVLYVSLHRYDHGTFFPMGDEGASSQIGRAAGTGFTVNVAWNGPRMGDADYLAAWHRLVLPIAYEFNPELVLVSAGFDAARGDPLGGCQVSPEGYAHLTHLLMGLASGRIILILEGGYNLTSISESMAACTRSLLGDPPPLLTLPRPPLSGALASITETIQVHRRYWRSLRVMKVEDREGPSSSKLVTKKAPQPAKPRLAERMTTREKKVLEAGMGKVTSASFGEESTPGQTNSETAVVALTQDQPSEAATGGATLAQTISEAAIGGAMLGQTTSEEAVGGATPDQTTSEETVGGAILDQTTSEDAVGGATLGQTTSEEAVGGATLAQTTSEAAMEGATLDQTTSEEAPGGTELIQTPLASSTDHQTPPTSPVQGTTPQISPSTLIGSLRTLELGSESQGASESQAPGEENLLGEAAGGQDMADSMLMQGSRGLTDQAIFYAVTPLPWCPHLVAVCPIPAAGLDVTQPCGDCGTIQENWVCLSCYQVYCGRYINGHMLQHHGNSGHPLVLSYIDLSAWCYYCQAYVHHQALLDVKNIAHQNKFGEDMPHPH
UniProt Q8RLA6, 21-275 limits assumed: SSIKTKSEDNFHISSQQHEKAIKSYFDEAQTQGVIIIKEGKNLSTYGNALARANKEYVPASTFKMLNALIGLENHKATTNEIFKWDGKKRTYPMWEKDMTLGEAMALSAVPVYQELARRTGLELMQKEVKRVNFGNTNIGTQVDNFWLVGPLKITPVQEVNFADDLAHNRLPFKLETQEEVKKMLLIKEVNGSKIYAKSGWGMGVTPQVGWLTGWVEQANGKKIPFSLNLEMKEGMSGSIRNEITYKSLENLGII
UniProt P9WPP7, whole entry: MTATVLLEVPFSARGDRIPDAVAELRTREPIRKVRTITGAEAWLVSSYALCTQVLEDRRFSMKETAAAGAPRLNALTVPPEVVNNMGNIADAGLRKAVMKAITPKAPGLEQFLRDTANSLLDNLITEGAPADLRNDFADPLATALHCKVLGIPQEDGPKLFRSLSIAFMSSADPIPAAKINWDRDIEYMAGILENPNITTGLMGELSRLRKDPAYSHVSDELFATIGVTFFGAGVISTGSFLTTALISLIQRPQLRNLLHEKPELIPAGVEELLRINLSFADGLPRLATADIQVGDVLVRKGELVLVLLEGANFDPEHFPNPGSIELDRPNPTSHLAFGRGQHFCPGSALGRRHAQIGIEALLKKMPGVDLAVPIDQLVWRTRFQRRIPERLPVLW
UniProt P42866, whole entry: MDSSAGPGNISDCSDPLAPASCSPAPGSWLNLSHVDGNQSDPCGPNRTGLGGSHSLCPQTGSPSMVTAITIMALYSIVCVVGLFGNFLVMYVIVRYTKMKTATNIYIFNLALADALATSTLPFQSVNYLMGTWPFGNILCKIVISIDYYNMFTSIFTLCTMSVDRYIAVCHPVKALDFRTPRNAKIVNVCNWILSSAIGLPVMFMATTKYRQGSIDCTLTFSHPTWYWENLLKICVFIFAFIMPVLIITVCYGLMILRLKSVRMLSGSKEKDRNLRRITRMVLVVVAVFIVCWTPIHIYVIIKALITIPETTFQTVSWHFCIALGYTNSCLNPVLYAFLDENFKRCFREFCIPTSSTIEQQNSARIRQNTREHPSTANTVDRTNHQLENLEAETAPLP
UniProt P45983, 1-384 isoform 3: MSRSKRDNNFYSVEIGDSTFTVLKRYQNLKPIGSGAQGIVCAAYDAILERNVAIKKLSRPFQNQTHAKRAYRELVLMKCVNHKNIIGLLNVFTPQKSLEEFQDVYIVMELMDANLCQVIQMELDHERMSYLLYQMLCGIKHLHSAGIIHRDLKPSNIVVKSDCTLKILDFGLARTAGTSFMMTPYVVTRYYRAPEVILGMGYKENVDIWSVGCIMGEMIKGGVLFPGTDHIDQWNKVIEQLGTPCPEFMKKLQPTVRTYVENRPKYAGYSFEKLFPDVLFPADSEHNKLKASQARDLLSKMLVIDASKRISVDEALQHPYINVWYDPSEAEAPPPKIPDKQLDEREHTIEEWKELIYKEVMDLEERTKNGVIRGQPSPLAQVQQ
UniProt P17706, whole entry: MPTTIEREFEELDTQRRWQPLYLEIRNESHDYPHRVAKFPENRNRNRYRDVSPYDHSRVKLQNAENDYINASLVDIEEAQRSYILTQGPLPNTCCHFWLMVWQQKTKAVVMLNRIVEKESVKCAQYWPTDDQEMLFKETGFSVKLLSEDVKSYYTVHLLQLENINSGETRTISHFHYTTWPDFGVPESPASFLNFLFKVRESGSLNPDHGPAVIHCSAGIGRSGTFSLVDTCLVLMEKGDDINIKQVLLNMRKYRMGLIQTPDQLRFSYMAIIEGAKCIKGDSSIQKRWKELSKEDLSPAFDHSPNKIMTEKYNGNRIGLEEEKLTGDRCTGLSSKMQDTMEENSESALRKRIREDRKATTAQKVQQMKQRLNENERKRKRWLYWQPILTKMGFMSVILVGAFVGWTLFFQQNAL
UniProt P08913, whole entry: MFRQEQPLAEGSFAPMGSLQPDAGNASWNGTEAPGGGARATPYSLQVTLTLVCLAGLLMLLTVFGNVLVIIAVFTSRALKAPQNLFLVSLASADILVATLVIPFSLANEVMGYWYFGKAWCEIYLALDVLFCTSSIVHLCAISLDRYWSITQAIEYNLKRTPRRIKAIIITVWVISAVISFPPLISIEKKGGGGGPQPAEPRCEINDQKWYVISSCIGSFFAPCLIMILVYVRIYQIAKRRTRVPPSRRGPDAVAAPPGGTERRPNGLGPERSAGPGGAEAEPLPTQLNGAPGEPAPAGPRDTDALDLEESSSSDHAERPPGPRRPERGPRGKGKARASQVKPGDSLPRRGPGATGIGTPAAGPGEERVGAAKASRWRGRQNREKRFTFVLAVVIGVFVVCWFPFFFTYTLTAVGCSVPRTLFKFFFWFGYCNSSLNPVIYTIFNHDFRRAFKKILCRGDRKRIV
UniProt P01106, whole entry: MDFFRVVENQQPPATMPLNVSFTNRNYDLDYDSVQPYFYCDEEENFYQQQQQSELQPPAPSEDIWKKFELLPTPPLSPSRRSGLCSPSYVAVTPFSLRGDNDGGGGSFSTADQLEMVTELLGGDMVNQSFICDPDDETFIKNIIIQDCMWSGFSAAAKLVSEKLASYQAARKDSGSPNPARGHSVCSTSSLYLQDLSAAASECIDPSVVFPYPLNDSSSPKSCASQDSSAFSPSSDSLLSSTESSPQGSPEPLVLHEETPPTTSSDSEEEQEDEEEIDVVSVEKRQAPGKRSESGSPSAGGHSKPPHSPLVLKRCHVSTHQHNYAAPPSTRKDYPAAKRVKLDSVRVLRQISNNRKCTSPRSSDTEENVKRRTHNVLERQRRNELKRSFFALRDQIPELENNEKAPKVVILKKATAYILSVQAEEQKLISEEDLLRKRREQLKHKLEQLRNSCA
UniProt P21554, whole entry: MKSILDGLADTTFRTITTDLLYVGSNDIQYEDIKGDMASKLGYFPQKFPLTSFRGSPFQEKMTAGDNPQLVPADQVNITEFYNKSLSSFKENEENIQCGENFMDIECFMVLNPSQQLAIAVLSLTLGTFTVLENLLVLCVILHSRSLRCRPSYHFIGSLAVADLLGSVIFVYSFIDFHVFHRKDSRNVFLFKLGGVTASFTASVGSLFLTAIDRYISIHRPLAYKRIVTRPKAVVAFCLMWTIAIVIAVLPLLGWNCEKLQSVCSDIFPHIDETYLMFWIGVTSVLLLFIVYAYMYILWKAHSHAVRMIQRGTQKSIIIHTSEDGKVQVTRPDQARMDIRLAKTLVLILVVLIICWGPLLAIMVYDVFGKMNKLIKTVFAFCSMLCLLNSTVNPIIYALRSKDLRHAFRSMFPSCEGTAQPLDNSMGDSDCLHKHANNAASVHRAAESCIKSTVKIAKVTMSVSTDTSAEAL
UniProt Q6XEC0, 23-265 limits assumed: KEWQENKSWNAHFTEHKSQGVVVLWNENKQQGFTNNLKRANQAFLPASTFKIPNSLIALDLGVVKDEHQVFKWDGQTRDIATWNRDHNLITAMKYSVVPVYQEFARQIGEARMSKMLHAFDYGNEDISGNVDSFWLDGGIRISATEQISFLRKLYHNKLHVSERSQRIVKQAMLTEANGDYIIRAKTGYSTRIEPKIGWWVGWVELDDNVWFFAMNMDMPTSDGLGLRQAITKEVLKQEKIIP
UniProt Q05769, 18-604 V509I limits assumed: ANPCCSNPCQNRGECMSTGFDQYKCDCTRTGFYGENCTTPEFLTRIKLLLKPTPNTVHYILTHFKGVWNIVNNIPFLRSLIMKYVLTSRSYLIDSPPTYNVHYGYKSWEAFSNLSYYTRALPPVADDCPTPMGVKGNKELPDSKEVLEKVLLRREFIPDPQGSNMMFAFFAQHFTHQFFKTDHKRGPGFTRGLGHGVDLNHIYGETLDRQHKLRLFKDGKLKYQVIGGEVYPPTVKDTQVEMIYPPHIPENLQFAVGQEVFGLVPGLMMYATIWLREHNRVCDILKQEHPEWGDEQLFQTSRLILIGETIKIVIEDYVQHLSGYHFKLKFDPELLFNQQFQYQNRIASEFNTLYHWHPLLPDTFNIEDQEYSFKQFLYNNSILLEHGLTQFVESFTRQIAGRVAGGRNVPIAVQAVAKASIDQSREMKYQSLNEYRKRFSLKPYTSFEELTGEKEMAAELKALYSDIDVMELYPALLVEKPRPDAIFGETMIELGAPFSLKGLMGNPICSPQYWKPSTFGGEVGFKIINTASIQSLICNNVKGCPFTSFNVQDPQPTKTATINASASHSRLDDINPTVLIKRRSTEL
UniProt Q76LL8, 24-415 limits assumed: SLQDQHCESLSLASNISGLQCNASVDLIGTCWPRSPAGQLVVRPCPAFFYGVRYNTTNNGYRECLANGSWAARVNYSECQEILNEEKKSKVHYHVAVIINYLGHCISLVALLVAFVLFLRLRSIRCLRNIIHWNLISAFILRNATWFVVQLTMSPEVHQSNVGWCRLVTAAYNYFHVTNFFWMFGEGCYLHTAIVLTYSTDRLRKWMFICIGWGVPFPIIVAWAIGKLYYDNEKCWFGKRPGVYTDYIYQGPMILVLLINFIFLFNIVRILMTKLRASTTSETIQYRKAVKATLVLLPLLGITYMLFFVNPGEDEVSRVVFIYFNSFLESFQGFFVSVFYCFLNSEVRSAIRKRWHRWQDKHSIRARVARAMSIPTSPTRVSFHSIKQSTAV

With `CCn1c(SCC(=O)Nc2ccc(C(C)=O)cc2)nnc1-c1cccnc1` the efficacy was 96% (Orco; calcium mobilization, agonist; HEK293 expressing Drosophila Orco; reference: VUAA1).
The melting temperature of `O=C(Oc1c(Br)cc(Br)cc1CNC(=O)c1ccccc1[N+](=O)[O-])c1ccccc1Cl` is reported as 70.5 ± 0.3 °C (lasR; thermal stability, differential scanning fluorimetry).
For `N=C(N)NCCC[C@H](NC(=O)c1ccccc1)C(=O)N[C@@H](CCCCN)C(=O)N[C@@H](C(N)=O)c1ccc(OCc2ccccc2)cc1`, the inhibition was 42.9 ± 7% (Genome polyprotein, NS2B-NS3 protease (dengue virus type 2, UniProt P29990); reporter gene; HeLa DENV2 protease reporter; 12.5 µM).
`CC[C@H](C)[C@H](NC(=O)[C@H](CC(=O)O)NC(C)=O)C(=O)N[C@@H](CC(=O)O)C(=O)N[C@@H](CCC(=O)O)C(=O)N[C@@H](Cc1cc(=O)oc2cc(OP(=O)(O)O)ccc12)C(=O)N[C@@H](CC(C)C)C(=O)N[C@@H](C)C(=O)N[C@@H](C)C(N)=O` has a kcat of 92 ± 5 s⁻¹ (PTPN2 (Homo sapiens, UniProt P17706); peptide hydrolysis, substrate).
The inhibition of `COc1ccc(CN[C@@H]2CO[C@H](C(c3ccccc3)c3ccccc3)C[C@H]2O)cc1` is reported as 45.8% (ADRA2A (Homo sapiens, UniProt P08913); radioligand binding; 10 µM, together with: [3H]clonidine).
`CC(=O)N[C@@H](CCCNC(=N)N)C(=O)N[C@H](C(=O)N[C@@H](CCCNC(=N)N)C(=O)N[C@@H](CCCNC(=N)N)C(=O)Nc1ccc2c(C)cc(=O)oc2c1)C(C)C` gave a Km of 4.9 µM (Furin (FURIN, Homo sapiens, UniProt P09958); substrate; pH 7).
With `COc1c(Br)cc(Br)cc1CNC(=O)c1ccccc1[N+](=O)[O-]` the maximum efficacy was 85% (lasR; reporter gene, agonist; Escherichia coli JLD271 lasI-lacZ reporter; reference: OdDHL).
`O=c1ccn([C@@H]2O[C@H](COP(=O)(O)OP(=O)(O)OP(=O)(O)O)[C@@H](O)[C@]2(F)Br)c(=O)[nH]1` gave an incorporation of 7.4% (POLRMT (Homo sapiens, UniProt O00411); substrate; 100 µM, 2 h; reference: natural rNTP).
`CC(C)C[C@@H](NC(=O)[C@H](NC(=O)[C@H]1CCCN1)[C@H](C)O)C(=O)N[C@H](Cc1c[nH]cn1)C(=O)N[C@@H](C(=O)N[C@H](Cc1c[nH]cn1)C(=O)N[C@H](CC(N)=O)C(=O)N[C@H](CCCNC(=N)N)C(=O)N[C@H](CCCNC(=N)N)C(=O)N[C@H](CCCNC(=N)N)C(=O)N[C@H](CCCNC(=N)N)C(=O)N[C@H](CCCNC(=N)N)C(N)=O)[C@H](C)O` gave an AUC(0-24h) of 76.2 ng·h/mL (healthy human, plasma; oral, 2 320 mg daily, day 1, mean).
The Tm shift of `C#CCCCN1C(=O)[C@@]2(CN2[S@@+]([O-])C(C)(C)C)c2ccccc21` (stereo partly shown) is reported as 6.4 °C (MYC (Homo sapiens, UniProt P01106); thermal destabilisation, CETSA; PSN1; 50 µM, 4 h; reference: vehicle).
`CC(=O)NCCCC[C@H](NC(C)=O)C(N)=O` gave a kcat/KM of 150 ± 30 M⁻¹ s⁻¹ (HDAC6; deacetylation, substrate; 25 °C, together with: 10 to 50 nM enzyme).
`Cc1ccc(N=Nc2c(O)ccc3cc(S(=O)(=O)O)ccc23)cc1` — result for “Noxa peptide bound”: 60.6% (Bcl-2-related protein A1 (Mus musculus, UniProt Q07440, C113S/P104K); binding, inhibitor, fluorescence polarization competition; 100 µM, overnight, 20 °C, together with: FITC-Noxa peptide 375 nM; reference: peptide without protein).
With `CCCCCCCC(=O)Oc1c(Br)cc(Br)cc1CNC(=O)c1ccccc1[N+](=O)[O-]` the melting temperature was 65.4 °C (lasR; thermal stability, differential scanning fluorimetry).
With `C[C@@H]1CN(C)CCN1c1nc(-c2ccc(F)cc2)cs1` the Vmax was 1.1 ± 0.2 pmol/min/well (Slc6a4 (Rattus norvegicus, UniProt P31652); [3H]5-HT uptake; HeLa transfected with Slc6a4; 0.15 µM).
With `Nc1cc(S(=O)(=O)O)cc2cc(S(=O)(=O)O)cc(O)c12` the ligand efficiency was 0.26 (blaOXA-33; enzyme activity, inhibitor).
For `O=C(NC1CCN(c2ncnc3c2nc(-c2ccccc2Cl)n3-c2ccc(Cl)cc2)CC1)C1CCCC1`, the Ke was 0.9 nM (CNR1 (Homo sapiens, UniProt P21554); calcium mobilization, antagonist, FLIPR; CHO-K1 with Gαq16; together with: CP55940).
`O=S(=O)(O)c1ccc(-c2ccc(S(=O)(=O)O)cc2)cc1` gave a ligand efficiency of 0.41 (OXA-48 (Klebsiella pneumoniae, UniProt Q6XEC0); enzyme activity).
`Fc1ccc(-c2csc(Cn3ccnc3)c2)cc1F` has a Kd of 5.3 ± 1.1 µM (cyp121; binding).
For `Cc1ccc(C(=O)Nc2cc(Cl)ccc2C(=O)O)cc1S(=O)(=O)Nc1ccc(Cl)c(Cl)c1`, the ligand efficiency was 0.24 (Replication protein A 70 kDa DNA-binding subunit, N-terminal domain (RPA1, Homo sapiens, UniProt P27694); binding, fluorescence polarisation competition; together with: FITC-ATRIP probe).
For `C#CCN1CC[C@]23c4c5ccc(O)c4O[C@H]2[C@H](NC(=O)c2ccc(N=[N+]=[N-])c([125I])c2)CC[C@@]3(O)[C@H]1C5`, “dissociation half-life (slow phase)” read 389 min (Oprm1; binding; CHO cell membranes; 0 °C).
With `CO[P@@]1(=O)OC[C@H]2COC(=O)C2=C(C)O1` (relative stereo) the k2 was 0.9 ± 0.5 min⁻¹ (ACHE (Homo sapiens, UniProt P22303); enzyme activity, inhibitor, reactivity constant).
For `CCCc1ccc(NC(=O)CSc2nnc(-c3cccnc3)n2CC)cc1`, the efficacy was 57% (Orco; calcium mobilization, agonist; HEK293 expressing Drosophila Orco; reference: VUAA1).
The potency decrease of `COc1ccc2c(c1)c(CC(=O)NCCCCNC(=O)CCC(=O)OC1c3cc4c(cc3C(c3cc(OC)c(OC)c(OC)c3)C3C(=O)OCC13)OCO4)c(C)n2C(=O)c1ccc(Cl)cc1` (stereo not shown) is reported as 3.8 fold (Ptgs2 (Mus musculus, UniProt Q05769, V509I); enzyme activity, inhibitor; reference: mutant V523I over wild type).
For `Cc1nc2c[nH]c(/C=C/C=C/c3ccc(N(C)C)cc3)cn-2c1=O`, the signal enhancement was 42.4 ± 3.3 fold (Amyloid-beta precursor protein, Aβ42 oligomers (APP, Homo sapiens, UniProt P05067); oligomer binding; 15 µM, amyloid-beta oligomers; reference: probe without protein).
For `CC1(C)CC[C@]2(C(=O)O)CC[C@]3(C)C(=CC[C@@H]4[C@@]5(C)CC[C@H](OC(=O)NCc6ccccc6)C(C)(C)[C@@H]5CC[C@]43C)[C@@H]2C1`, the AUC(0-t) was 63.7 nmol·h/mL (C57BL/6 mice, plasma; intraperitoneal, 85 µmol/kg).
The ligand efficiency of `O=C(O)c1ccc(-c2cccc(C(=O)O)c2)cc1` is reported as 0.3 (blaOXA-33; enzyme activity, inhibitor).
With `CC(=O)NCCCC[C@H](NC(=O)CNC(=O)[C@H](CCCNC(=N)N)NC(C)=O)C(=O)N[C@@H](Cc1c[nH]c2ccccc12)C(N)=O` the kcat was 0.041 ± 0.014 s⁻¹ (HDAC8 (Homo sapiens, UniProt Q9BY41); deacetylation, substrate; 25 °C, together with: 150 nM enzyme).
`CC1(C)SCN(C(=O)[C@@H](O)[C@H](Cc2ccccc2)NC(=O)COc2ccccc2)[C@@H]1C(=O)N[C@H]1c2ccccc2C[C@H]1O`: “ΔG of binding” -10820 ± 33 cal/mol (Gag-Pol polyprotein, protease (gag-pol, Human immunodeficiency virus type 1 group M subtype B, UniProt P04585, L521I/L551I/Q495K); isothermal titration calorimetry; concentration not given, pH 5.0, 25 °C, 2% DMSO).
`CC(=O)NCCCC[C@H](NC(C)=O)C(=O)N[C@@H](Cc1c[nH]c2ccccc12)C(N)=O` gave a kcat/KM of 2500 ± 1000 M⁻¹ s⁻¹ (HDAC6; deacetylation, substrate; 25 °C, together with: 10 to 50 nM enzyme).
With `O=C(Oc1c(Br)cc(Br)cc1CNC(=O)c1ccccc1[N+](=O)[O-])c1ccccc1` the maximum efficacy was 100% (lasR; reporter gene, agonist; Escherichia coli JLD271 lasI-lacZ reporter; reference: OdDHL).
`C=CCN1CC[C@]23c4c5ccc(O)c4O[C@H]2[C@H](NC(=O)c2ccc(N=[N+]=[N-])c([125I])c2)CC[C@@]3(O)[C@H]1C5`: “dissociation half-life (slow phase)” 81 min (Oprm1; binding; CHO cell membranes; 0.1 nM, 25 °C).
The viability of `Cc1ccccc1S(=O)(=O)Nc1cccc(C(=O)NC2CCN(c3ncnc4[nH]cnc34)CC2)c1` is reported as 104% (A549-ACE2; 0.03048 µM).
The Kd of `COc1ccc(-c2csc(Cn3ccnc3)c2)cc1` is reported as 16 ± 3.9 µM (cyp121; binding).
`COC(=O)[C@@H](CS)N1C(=O)c2ccc(N(C)C)cc2C1=O` has a fluorescence increase of 12 fold (blaNDM-1 (Klebsiella pneumoniae, UniProt C7C422, M154L); probe; 10 µM, NDM-4 variant, probe:enzyme 1:3, together with: ZnSO4 10 µM; reference: probe alone).
With `COCOc1c(Br)cc(Br)cc1CNC(=O)c1ccccc1[N+](=O)[O-]` the melting temperature was 57.2 °C (lasR; thermal stability, differential scanning fluorimetry).
`COC(=O)C(CC(=O)c1ccc(Cl)cc1)SCCNC(=O)CCNC(=O)[C@H](O)C(C)(C)COP(=O)(O)OP(=O)(O)OC[C@H]1O[C@@H](n2cnc3c(N)ncnc32)[C@H](O)[C@@H]1OP(=O)(O)O` (stereo partly shown) has a ΔΔG of 1.3 kcal/mol (1,4-dihydroxy-2-naphthoyl-CoA synthase (menB, Staphylococcus aureus, UniProt Q5HH38); isothermal titration calorimetry; reference: CoA binding).
With `COC(=O)[C@@]1(C)C=C(C(=O)Nc2ccc(C)c(C(=O)Nc3ccc(Nc4nccc(-c5cccnc5)n4)cc3)c2)C(=O)CC1` the remaining activity was 0.6 (MAPK8; kinase activity, inhibitor; 0.006774 µM, unit not given, together with: 10 mM GSH; reference: DMSO).
`O=C(N[C@@H]1CC[C@@]2(O)[C@H]3Cc4ccc(O)c5c4[C@@]2(CCN3CC2CC2)[C@H]1O5)c1ccnc(Br)c1` has an Emax of 57.3 ± 2.48% (Oprd1 (Mus musculus, UniProt P32300); agonist; CHO cell membranes; 5 µM; reference: DPDPE).
`COC(=O)[C@@]1(C)C=C(C(=O)Nc2cc(C(=O)Nc3ccc(Nc4nccc(-c5cccnc5)n4)cc3)ccc2C)C(=O)CC1` gave a remaining activity of 0.015 (MAPK8; kinase activity, inhibitor; 44.44 µM, unit not given, together with: 10 mM GSH; reference: DMSO).
With `COCCN(CCOC)c1nc(C)nc2c(-c3c(OC)cc([76Br])cc3OC)c(C)nn12` the specific binding was roughly 80% (Corticotropin-releasing factor receptor 1 (Macaca mulatta, UniProt Q76LL8); in vitro autoradiography; rhesus prefrontal cortex laminae; concentration not given).

Repeated from above:
`Fc1ccc(-c2csc(Cn3ccnc3)c2)cc1F` has a Kd of 5.3 ± 1.1 µM (cyp121; binding).
With `O=C(Oc1c(Br)cc(Br)cc1CNC(=O)c1ccccc1[N+](=O)[O-])c1ccccc1` the maximum efficacy was 100% (lasR; reporter gene, agonist; Escherichia coli JLD271 lasI-lacZ reporter; reference: OdDHL).
The ligand efficiency of `O=C(O)c1ccc(-c2cccc(C(=O)O)c2)cc1` is reported as 0.3 (blaOXA-33; enzyme activity, inhibitor).
With `COc1c(Br)cc(Br)cc1CNC(=O)c1ccccc1[N+](=O)[O-]` the maximum efficacy was 85% (lasR; reporter gene, agonist; Escherichia coli JLD271 lasI-lacZ reporter; reference: OdDHL).
